Measurements gathered from unrelated publications.
Numbered parts are unrelated; each lists some results of a single study. Values joined by “and” are separate records of one study, mostly repeats; a detail may differ.

Study 1
SMILES: CC(C)(C(=O)O)[C@H](NC(=O)Cc1cccc(I)c1)c1ccc2oc(=O)[nH]c2c1
Method: Incucyte 3D growth
Tested at: 30 µM
Direction: higher = more growth
cell line | setting | spheroid area
MEL-JUSO | 402.52 h | 7.36e+07 a.u. and 3.99e+07 a.u. and 3.71e+07 a.u. and 4.09e+07 a.u. and 3.08e+07 a.u. and 4.03e+07 a.u.
A375 | 516.52 h | 1.44e+08 a.u. and 1.54e+08 a.u. and 1.42e+08 a.u. and 1.74e+08 a.u. and 1.38e+08 a.u. and 1.48e+08 a.u.
A375 | 78 h | 4.31e+07 a.u. and 4.22e+07 a.u. and 5.19e+07 a.u. and 6.15e+07 a.u. and 5.44e+07 a.u. and 5.82e+07 a.u.
IPC-298 | 138 h | 2.49e+07 a.u. and 2.37e+07 a.u. and 2.59e+07 a.u. and 1.96e+07 a.u. and 2.82e+07 a.u. and 3.03e+07 a.u.
A375 | 240 h | 1.38e+08 a.u. and 1.18e+08 a.u. and 1.32e+08 a.u. and 1.6e+08 a.u. and 1.33e+08 a.u. and 1.36e+08 a.u.
A375 | 474.52 h | 1.51e+08 a.u. and 1.49e+08 a.u. and 1.62e+08 a.u. and 1.63e+08 a.u. and 1.42e+08 a.u. and 1.77e+08 a.u.

Study 2
Organism: Sarcocystis neurona
Effect on: parasite activity
Tested at: 10 µM
Time: 96 h
SMILES | activity class
CCc1ccc(CCOc2ccc(CC3SC(=O)NC3=O)cc2)nc1 (stereo not drawn) | inactive
CSc1ccc2c(c1)N(CCC1CCCCN1C)c1ccccc1S2 (stereo not drawn) | inactive
CCCCC1=NC2(CCCC2)C(=O)N1Cc1ccc(-c2ccccc2-c2nnn[nH]2)cc1 | inactive
COc1cccc2c1C(=O)c1c(O)c3c(c(O)c1C2=O)C[C@@](O)(C(C)=O)C[C@@H]3O[C@H]1C[C@H](N)[C@H](O)[C@H](C)O1 | inactive
CC(C)[C@H](N)C(=O)OCCOCn1cnc2c(=O)[nH]c(N)nc21 | inactive
CCOc1cc(CC(=O)N[C@@H](CC(C)C)c2ccccc2N2CCCCC2)ccc1C(=O)O | inactive
CC(=O)O[C@]1(C(C)=O)CC[C@H]2[C@@H]3C[C@H](C)C4=CC(=O)CC[C@]4(C)[C@H]3CC[C@@]21C | inactive
CCCCC(=O)O[C@]1(C(=O)CO)CC[C@H]2[C@@H]3CCC4=CC(=O)CC[C@]4(C)[C@H]3[C@@H](O)C[C@@]21C | inactive

Study 3
SMILES: C=CCc1ccc(O)c(-c2ccc(O)c(CC=C)c2)c1
Effect on: chloride current
Method: whole-cell voltage clamp
ANO1 del476-501: Anoctamin-1 (ANO1, Homo sapiens, UniProt Q5XXA6, del476-501)
UniProt Q5XXA6, sequence (whole entry, unmodified, looked up): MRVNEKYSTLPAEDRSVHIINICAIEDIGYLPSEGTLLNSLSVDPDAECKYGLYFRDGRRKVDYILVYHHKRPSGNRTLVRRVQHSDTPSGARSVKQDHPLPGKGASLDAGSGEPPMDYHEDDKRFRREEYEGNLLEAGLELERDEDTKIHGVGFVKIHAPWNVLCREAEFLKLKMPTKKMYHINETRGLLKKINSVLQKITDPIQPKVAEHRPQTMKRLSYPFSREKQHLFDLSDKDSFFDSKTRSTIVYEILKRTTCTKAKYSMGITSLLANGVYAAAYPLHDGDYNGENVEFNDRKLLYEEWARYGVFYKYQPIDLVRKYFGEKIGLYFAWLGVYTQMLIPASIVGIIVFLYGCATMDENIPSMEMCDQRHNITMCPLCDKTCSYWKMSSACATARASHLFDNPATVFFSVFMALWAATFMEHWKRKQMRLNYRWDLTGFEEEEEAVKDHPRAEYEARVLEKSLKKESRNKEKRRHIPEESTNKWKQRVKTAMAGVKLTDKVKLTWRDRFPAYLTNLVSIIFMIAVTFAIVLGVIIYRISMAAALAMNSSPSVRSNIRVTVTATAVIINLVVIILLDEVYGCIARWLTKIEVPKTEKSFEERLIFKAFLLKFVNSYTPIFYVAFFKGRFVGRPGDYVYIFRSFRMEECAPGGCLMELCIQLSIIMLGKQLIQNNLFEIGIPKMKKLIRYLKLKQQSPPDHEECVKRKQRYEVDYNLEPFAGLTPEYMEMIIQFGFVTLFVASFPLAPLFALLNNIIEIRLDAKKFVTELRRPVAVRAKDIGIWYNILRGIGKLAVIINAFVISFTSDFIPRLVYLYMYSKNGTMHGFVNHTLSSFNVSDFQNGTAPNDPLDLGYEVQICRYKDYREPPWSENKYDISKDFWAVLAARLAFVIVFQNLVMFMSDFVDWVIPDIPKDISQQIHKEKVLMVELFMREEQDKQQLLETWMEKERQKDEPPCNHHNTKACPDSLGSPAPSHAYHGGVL
ANO1 del476-501/F807A: Anoctamin-1 (ANO1, Homo sapiens, UniProt Q5XXA6, del476-501/F807A)
target | test | setting | IC50
ANO1 del476-501 |  | membrane voltage 20 mV, added: 300 nM Ca2+ | 3.14 µM
Anoctamin-1 (ANO1, Homo sapiens, UniProt Q5XXA6, del476-501/F803W) | inhibitor | 20 mV holding voltage | 4.82 µM
ANO1 del476-501 | inhibitor | -20 mV voltage, added: 300 nM Ca2+ | 2.88 µM
ANO1 del476-501 | inhibitor | -60 mV voltage, added: 300 nM Ca2+ | 2.82 µM
Anoctamin-1 (ANO1, Homo sapiens, UniProt Q5XXA6, del476-501/F646A) |  | membrane voltage 80 mV | 7.73 µM
ANO1 del476-501/F807A |  | membrane voltage 40 mV | 19.6 µM
Anoctamin-1 (ANO1, Homo sapiens, UniProt Q5XXA6, del476-501/F807I) | inhibitor | F781I mutant at -100 mV | 17.3 µM
Anoctamin-1 (ANO1, Homo sapiens, UniProt Q5XXA6, del476-501/F628Y) | inhibitor | mutant F602Y | 22.6 µM
ANO1 del476-501/F807A |  | membrane voltage -60 mV | 35.3 µM

Further values, each from its own experiment
Compound | cell line | setting | scale | quantity | result
CN(C)C(=O)/C(C#N)=C/c1ccc(-c2nc3cnc4c(ccn4C)c3n2C2CCCCC2)o1 | sample C colorectal tumour organoid | 0.1 µM | reference: DMSO | viability | 108%

Repeated from above (study 3):
target | test | setting | IC50
ANO1 del476-501/F807A |  | membrane voltage 40 mV | 19.6 µM
Anoctamin-1 (ANO1, Homo sapiens, UniProt Q5XXA6, del476-501/F807I) | inhibitor | F781I mutant at -100 mV | 17.3 µM
Anoctamin-1 (ANO1, Homo sapiens, UniProt Q5XXA6, del476-501/F803W) | inhibitor | 20 mV holding voltage | 4.82 µM
ANO1 del476-501/F807A |  | membrane voltage -60 mV | 35.3 µM
